Assay results collected from several papers.
Parts stem from different laboratories: compare values within a part only. Several values in a cell are separate wells, animals, samples, runs or records.

Study 1
Species: mouse
Medium: microsomes or S9
Concentration: 2 µM
Time: 0.5 h
SMILES | remaining compound
CCc1cc2c3c([nH]c2cc1S(=O)(=O)Nc1ccc2c(c1)OCCO2)CC(C)(C)CC3=O | 0.883%
O=C(c1ccccc1)c1c[nH]c(C(c2ccccc2)c2ccc(C(c3ccccc3)c3cc(C(=O)c4ccccc4)c[nH]3)o2)c1 (stereo not drawn) | 32.5%
COc1ccc(C(=O)N2CCC(c3ccc(OC)cc3)(c3ccc(OC)cc3)CC2)cc1 | 23.4%
O=C(Nc1ccc2nncn2c1)c1cccc2cc[nH]c12 | 74.5%
O=c1[nH]c(N2CCc3ccccc3C2)nc2ncc3c(c12)CCC3 | 0.958%
CCn1ncc(Cl)c1-c1nc2c3cnn(C)c3ncn2n1 | 100%

Study 2
Cell line: mouse MPNST tumor cells
Technique: high-content nuclear imaging
Measured: cell number
Concentration: 10 µM
Time: 12 h
Setting: mean of 2 replicates
Baseline: plate mean
Reading: higher = more cells
SMILES | nuclei count
CSc1nc2ccc3nc(NC(=O)C(c4ccccc4)c4ccccc4)sc3c2s1 | 0.819 z-score
CN1C(=O)CC(c2ccccc2)C1=O (stereo not drawn) | -0.246 z-score and 3.11 z-score
COc1ccc2c(c1)c(CC(=O)OCC(=O)O)c(C)n2C(=O)c1ccc(Cl)cc1 | 2.57 z-score
CC(S)C(=O)NCC(=O)O (stereo not drawn) | -0.942 z-score
CN1Cc2c(C(=O)OC(C)(C)C)ncn2-c2ccsc2C1=O | -0.263 z-score
C[C@@H]1CN(c2cc(-c3n[nH]c4ccc(OC5(C)CC5)cc34)ncn2)C[C@H](C)O1 | 0.0143 z-score
COCCCOc1cc(C[C@@H](C[C@H](N)[C@@H](O)C[C@H](C(=O)NCC(C)(C)C(N)=O)C(C)C)C(C)C)ccc1OC | 1.38 z-score and 0.432 z-score and 1.01 z-score

Study 3
Target: Interleukin-1 receptor-associated kinase 4 (IRAK4, Homo sapiens, UniProt Q9NWZ3)
Chain of UniProt Q9NWZ3 (whole entry, looked up): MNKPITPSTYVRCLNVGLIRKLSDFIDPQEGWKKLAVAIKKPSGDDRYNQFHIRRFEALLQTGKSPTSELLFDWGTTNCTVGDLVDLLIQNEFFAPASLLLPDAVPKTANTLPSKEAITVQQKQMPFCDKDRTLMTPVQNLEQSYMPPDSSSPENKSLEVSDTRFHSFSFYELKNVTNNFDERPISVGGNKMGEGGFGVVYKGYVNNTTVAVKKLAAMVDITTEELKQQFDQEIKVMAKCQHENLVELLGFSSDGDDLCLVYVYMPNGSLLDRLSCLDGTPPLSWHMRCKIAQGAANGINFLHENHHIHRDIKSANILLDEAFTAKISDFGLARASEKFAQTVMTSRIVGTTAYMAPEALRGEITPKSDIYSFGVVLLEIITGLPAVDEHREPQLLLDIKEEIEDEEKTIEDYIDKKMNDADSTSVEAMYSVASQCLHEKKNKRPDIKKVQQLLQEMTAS
Effect on: enzyme activity
Mode: inhibitor
Concentration: 0.5 µM
Baseline: control
Structure (SMILES) | remaining activity
Nc1[nH]nc2nc3ccccc3nc12 | 94.7%
OCC(O)CCON=C1C(c2c(O)[nH]c3ccccc23)=Nc2ccccc21 (stereo not drawn) | 60.3%
O=C(CCCc1ccc(-c2ccccc2F)cc1)Nc1ccc(O)cc1 | 86.3%
C#Cc1cccc(Nc2ncnc3cc(OCCOC)c(OCCOC)cc23)c1 | 93.8%
CCOC(=O)c1c(C)[nH]c(/C=C2\C(=O)Nc3ccccc32)c1C | 96.8%
O=C1NC(=O)C(c2cn(CCCO)c3ncccc23)=C1c1cnccn1 | 129%
O=S(=O)(c1cccc2cnccc12)N1CCCNCC1 | 108%
COc1cc2ncnc(Nc3ccc(F)c(Cl)c3)c2cc1OCCCN1CCOCC1 | 78.8%
COc1ccc(OC)c2c(=S)c3ccccc3[nH]c12 | 109%
Nc1ncnc2n[nH]c(Nc3ccc(F)cc3)c12 | 88.3%
COc1ccc(CNC(=O)Nc2ncc([N+](=O)[O-])s2)cc1 | 101%
Cc1nc(-c2ccccc2)c(-c2ccncc2)o1 | 107%
COc1cc2nccc(Oc3ccc(NC(=S)NC(=O)c4ccccc4C)cc3)c2cc1OC | 82.4%
Nc1ccc2ncnc(NCCc3ccc(Oc4ccccc4)cc3)c2c1 | 92.4%
CN(C)c1ccc(C=C2C(=O)Nc3ccccc32)cc1 | 104%

Study 4
Cell line: HuT78
Concentration: 2 µM
Time: 48 h
Baseline: untreated
SMILES | viability [%]
CCC[C@H](NC(=O)/C(C#N)=C/c1cccc(Br)n1)c1ccccc1 | 126
COc1ccc(CNC(=O)Nc2ncc([N+](=O)[O-])s2)cc1 | 112
CC(C)(C)c1ccc(S(=O)(=O)/C=C/C#N)cc1 | 22.4
CN(c1ccccc1CNc1nc(Nc2ccc3c(c2)CC(=O)N3)ncc1C(F)(F)F)S(C)(=O)=O | 62.8

Study 5
Target: 5-hydroxytryptamine receptor 7 (HTR7, Homo sapiens, UniProt P34969)
Chain of UniProt P34969 (whole entry, looked up): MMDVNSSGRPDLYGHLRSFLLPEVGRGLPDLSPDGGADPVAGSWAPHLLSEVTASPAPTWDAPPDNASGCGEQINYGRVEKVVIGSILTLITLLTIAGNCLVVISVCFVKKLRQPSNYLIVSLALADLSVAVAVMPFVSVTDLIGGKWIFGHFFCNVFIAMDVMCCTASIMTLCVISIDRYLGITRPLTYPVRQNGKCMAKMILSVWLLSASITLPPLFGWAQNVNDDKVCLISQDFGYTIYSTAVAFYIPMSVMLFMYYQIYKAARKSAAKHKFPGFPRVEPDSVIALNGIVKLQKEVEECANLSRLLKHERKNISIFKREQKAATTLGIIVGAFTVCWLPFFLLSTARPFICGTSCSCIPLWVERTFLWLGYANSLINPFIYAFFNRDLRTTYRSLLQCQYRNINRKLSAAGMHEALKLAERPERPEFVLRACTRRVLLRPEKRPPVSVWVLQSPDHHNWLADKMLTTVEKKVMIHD
Effect on: ligand displacement
Concentration: 10 µM
Compound | inhibition
Cc1c(NC(=O)c2cc(C(N)=O)nc3cc(F)ccc23)c(C(F)(F)F)nn1Cc1ccc(C#N)cc1 | 2.31%
CN1CCN(c2ccnc(NCCc3ccccc3)n2)CC1 | 92.4%
CC(=O)N1CCC(c2ccc(C(=O)NC3=NCCN3)cc2C(F)(F)F)CC1 | 3.32%
O=C(NS(=O)(=O)c1ccc(NCC2CCOCC2)c([N+](=O)[O-])c1)c1ccc(N2CCN(Cc3ccc(C(F)(F)F)cc3-c3ccc(Cl)cc3)CC2)cc1Oc1cnc2[nH]ccc2c1 | -22.4%
